Results of several laboratories.
Each numbered part is a random draw from the data of one study; scales do not carry over between parts. Changes are numbered by the printed parent chain.

Series 1
Target: RNA binding protein fox-1 homolog 2, RRM domain, GST-SBP tag (RBFOX2, Homo sapiens, UniProt O43251-10, residues 100-194)
Method: RNA Bind-n-Seq
Form: RNA
Matrix: in vitro
Concentration: 365 nM
Setting: natural RNA segment, single round, ends assumed
Baseline: no-protein control
Reading: higher = stronger binding
Constant ends, left off below: GGGAGUUCUACAGUCCGACGAUC … UGGAAUUCUCGGGUGCCAA
Residues (chain): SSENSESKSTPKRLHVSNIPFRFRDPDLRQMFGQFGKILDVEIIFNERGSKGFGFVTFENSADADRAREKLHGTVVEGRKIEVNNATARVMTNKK
Sequence	RBNS enrichment (R)
CAAUAACAGAAACACUCCCAGGGACUCUGGGGAGAGGCUGAGGACAAAUACCUGCUGUCACUCCAGAGACAUUUUUUUUAGCAAUAAAAUUGAGUGUCAACUAUUUAAUC	0.384
CACAGUGUUAGUGCUGGUCAGAGAGACCUCAUCCUGCUCUUUUGUGAUGAACAUAUUCAUGACGCGUGGAAGUCAGUACGAUCAAGUUGUUGACUGUGAUUAGAUCACAC	0.433
UCUAGCAUAUGGACACCUGGCCUCUGCUUGAGCACUUAGGUGACAGGAACUUCCGCACCUCCUGAGGCCCUGGAUGAUUCUAAUUGUUAGAAAUUCUAAUUGUUAGAAAU	0.237
AUUUCUCUGACAAGACAAAGUAGAUAUUUUAUACCAGGGGUUGGCAAACUACUGCCCACGGGCCGAAUUUGGCCCAGUCUGUUUUUGUAUGGUGCAAACUAAAAAUGAUU	0.606
GUGUGUGUGUGUGUGUAUGUUCAUGUACACUUGGCUGUCAGGCUUUCUGUGCAUGUACUAAAAAAGGAGAAAUUAUAAUAAAUUAGCCGUCUUGCGGCCCCUAGGCCUAA	3.47
AAAGUCAAGCAUCACUUAAGACAUGCCCAGGGCUCCAGCUUGCCCUCAGCAGUCCUUCAGGACUUCUGGUUCCUUCCGCCACCCUUCUCAAGAUUCUAGAAAUCAAAGGA	0.449
CCUUCCAUCUGAUUUGCCUGGCCAUGCCAUCCAGUCCUUGUACAUAUAUACCUUGGAGUCCCAUACACUUAGGAAACUCCAAGGAGACACGUCCUGCUCAUCCCCGCCCC	0.301
UUGCCAACAGUCUCUAUGCUUAUUUACAUCUUCUACUGUUCAAACUAAGAGAUUUUUAAAUUCUGAAAAACUGCUUACAAUUCAUGUUUUCUAGCCACUCCACAAACCAC	0.468
UUGCUGCUCCAACCCAUAGCACGCUUCCUACUGCACACACAUGUUUUAACCAACUGUGCCUCCCUACAUAUGACUCAUAUGAAGAGGUGCACAGGAUGCUACAGCUGGCC	0.41
UCUUAUUUUGGAUUAAAAGAAGUUUUCCAUUUGAUACCUCUCUAAAUUAAAUAAAUUAUAGAAUGUAGUUGGGUGGAUUUUGGGGUGGCCAUAUAGUAAUGGAAAGCUGC	0.59
GAUACGCUCAUAUGCACUUAGGAGUGAGCUUUGUUGUACAGUCUGUCCACGGGGUCGAUGCUGUUAUUAGGUGAAAAUAGUGUGAUCUUUAAGACUUUAAAUACAGAUUU	0.956
CACUACCUGGGACUCUCUGCGAUGUACAUAAUAUUUAAUGCGGUUCCGGCAGCAGCCUUCUCUGGAGGACUGAUACACAGAAGGAAACGAAGGCGCUUGCUGUGGCCGCA	0.63

Series 2
Target: Histone acetyltransferase KAT6A, winged helix 1, GST fusion (KAT6A, Homo sapiens, UniProt Q92794, residues 1-85)
Method: protein binding microarray
Form: double-stranded DNA, one strand shown
Matrix: in vitro
Concentration: not given
Setting: 8-mer, flanks averaged, mean of 2 arrays, mostly near background
Baseline: not given
Reading: higher = stronger binding
Residues (chain): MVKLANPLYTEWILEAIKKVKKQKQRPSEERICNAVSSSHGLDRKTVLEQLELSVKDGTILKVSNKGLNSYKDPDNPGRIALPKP
Sequence	E-score
TTGATAAA	-0.129
ATAATGCC	0.0195
ACTTCTAA	-0.0689
AGTCCTGA	-0.214
ATCTAAAG	-0.127
ACCTGGCG	0.171
CCCCCCCC	-0.0168
ACTGGGCC	-0.0866
AATATTTC	-0.0987
ACGGGATA	0.109
AGGAGGAA	-0.142
AGGGCAGG	-0.246
TCCTGAAA	-0.0957
AGTCAACC	-0.151
CACCACTA	-0.24
ATATATGG	-0.0825
CAGACTAC	-0.0754
CCACAATC	-0.121
AGATGCTC	-0.168
ACCCTAGA	-0.19
TCTGAAAA	-0.221

Series 3
Target: Ras GTPase-activating protein-binding protein 1, C-terminal RGG region (G3BP1, Homo sapiens, UniProt Q13283)
Chain of UniProt Q13283 (whole entry, looked up): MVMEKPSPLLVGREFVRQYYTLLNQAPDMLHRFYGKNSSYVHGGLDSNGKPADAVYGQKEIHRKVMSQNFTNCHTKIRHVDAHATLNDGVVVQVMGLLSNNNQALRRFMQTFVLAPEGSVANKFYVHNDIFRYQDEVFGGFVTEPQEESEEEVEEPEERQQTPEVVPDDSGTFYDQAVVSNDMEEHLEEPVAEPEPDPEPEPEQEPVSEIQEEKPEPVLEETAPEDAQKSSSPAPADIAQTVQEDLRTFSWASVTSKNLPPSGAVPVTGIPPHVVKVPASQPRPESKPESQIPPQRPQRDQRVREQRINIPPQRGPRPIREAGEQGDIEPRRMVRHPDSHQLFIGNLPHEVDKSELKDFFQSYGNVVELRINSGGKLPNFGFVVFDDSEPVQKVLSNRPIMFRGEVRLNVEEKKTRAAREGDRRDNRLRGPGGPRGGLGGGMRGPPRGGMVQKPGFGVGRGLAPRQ
Method: RNA Bind-n-Seq
Form: RNA
Matrix: in vitro
Concentration: 1 µM
Setting: whole 134-nt RNA, ends assumed
Together with: 150 mM KCl
Baseline: input library
Reading: higher = stronger binding
Constant ends, left off below: GGGAGUUCUACAGUCCGACGAUC … UGGAAUUCUCGGGUGUCAAGG
Sequence	log2 enrichment
UCAAGUCCUGUGCUACACAUCGUAUGUACCGAAUCGGGGUGGGGAGGGGAGGGGAAAGUAUUAUGUUACGCCGUUCGGAUCUGCACUUCC	3.24
UCAAGUCCUGUGCUACACAUCGUAUGUACCGAAUCGGGGUUGGUUGGGUUGGGGAAAGUAUUAUGUUACGCCGUUCGGAUCUGCACUUCC	0.443
AAGUCCUGUGCUACACAUCGUAUGUACCGAAUCGGUUUUGGUUUUGGGGUUUUGGGGAAAGUAUUAUGUUACGCCGUUCGGAUCUGCACU	-1.02
AAGUCCUGUGCUACACAUCGUAUGUACCGAAUCGGGGCCCCGGGCCCCGGCCCCGGGAAAGUAUUAUGUUACGCCGUUCGGAUCUGCACU	-1.78
CUCAAGUCCUGUGCUACACAUCGUAUGUACCGAAUCGGGGCGGGCGGGCGGGGAAAGUAUUAUGUUACGCCGUUCGGAUCUGCACUUCCA	2.62
CACAGACAACACGCACCCACACAGACACAGAGGGAAGGGGUUGGGAUGGGGACACGGUGCACAGCAGGGCGGGGUAGGACCCCAGCCCCU	-0.511
CACAGACAACACGCACCCACACAGACACACAGGGAAGGGGUUGGGAUGGGGACAGGGUGCACAGCAGGGCGGGGUAGGACCCCAGCCCCU	0.0276
AGUCCUGUGCUACACAUCGUAUGUACCGAAUCGGGUGGGUUUUUUUGGGUUUUUGGGAAAGUAUUAUGUUACGCCGUUCGGAUCUGCACU	-0.406
UAACUUCAGAGGAGGAUCUGAUGGAUAUGGCAGUGGACGUGGAUUUGGGGAUGGCUAUAAUGGGUAUGGAGGAGGACCUGGAGGUGGCAA	-1.86
ACCAUGCAGGUGGGCAUCUUUGGGAAGUGGGGCAAGGGGGGGAUAGGGAGGGGGGUAACACUUUGGGAACGGGUGGUCCCAGGUCGUUUC	2.54
CCUGUGCUACACAUCGUAUGUACCGAAUCGGCCCCCCCGGGGCCCCCCCGGGCCCCCCCGGAAAGUAUUAUGUUACGCCGUUCGGAUCUG	-1.55
CACAGACAACACGCACCCACACGGACACAGAGGGAAGGGGUUGGGAUGGGGACAGGGUGCACAGCAGGGCGGGGUAGGACCCCAGCCCCU	-0.574
CACAGACAACACGCACCCACACAGACACAGAGGGAAGGGGUUGGGAUGGGGACAGGGUGCACAGCAGGGCGGGAAAGGACCCCAGCCCCU	-0.325
UGUGCUACACAUCGUAUGUACCGAAUCGGGGAAAAAAAGGGGAAAAAAAGGGGAAAAAGGGGAAAGUAUUAUGUUACGCCGUUCGGAUCU	0.166

Series 4
Target: Interferon regulatory factor 5, full length, phosphomimetic (IRF5, Homo sapiens, UniProt Q13568-2, residues 1-514, S451D/S453D/S456D/S462D)
Method: protein-binding microarray
Form: double-stranded DNA, one strand shown
Matrix: in vitro
Concentration: 940 nM top
Setting: 60-bp whole probe
Together with: salmon DNA 0.4 mg/ml
Baseline: random background probes
Reading: higher = stronger binding
Constant ends, left off below: GCCTAGCAC … GTCTTGATTCGCTTGACGCTGCTG
Sequence	fitted relative affinity [z-score]
TTAGGTCTCGGTATCGGTGAGTGCTAG	5.85
TCAGTTTTTGCTTTCTTACTGTGCTAG	1.53
TTAGGTCTCGGACTGGGGTAGTGCTAG	0.812
TCACTCTTCTTTTTTTTACTGTGCTAG	2.26
TTAGGACAGGACACTGGGTTAGTGCTA	-0.318
CACGGTATCGGGTATCGGGACGTGCTA	5.1
TTAGGACTCGGTTTCGGTTAGTGCTAG	7.49
TTAGAAGTGAGACTGGATTAGTGCTAG	-0.255
GACGGTTTCGGTATCGGAACGTGCTAG	13.5
TTAGATTACGGGTATCGATTAGTGCTA	2.56
TTTGGTTTCGACTATCGGTTAGTGCTA	12.2
GACGGACTGCTACTGCTGTCGTGCTAG	-0.3
TCATATATGTGTATATAACTGTGCTAG	-0.124
TTAGGTATCGACTATCGGGTAGTGCTA	5.62
CAAGTGGAGCCCAGGCCAGAGTGCTAG	-0.774
TCATTTTTTTTTTTTTGACTGTGCTAG	1.06
TTAGAACTGGGGTTTCGATTAGTGCTA	5.37
TGTGCTTTCCTGATGACCCTGTGCTAG	0.391
TTAGGTATCGGGTATCGGTTCGTGCTA	7.18
GACGGTTTCAGTCTCGAGACGTGCTAG	6.24
TTTGGTATCGGGACTGGGTTAGTGCTA	7.34
TTGTTTCCATTTTCTGAATGCGTGCTA	1.54
TCATCTTTCATTGCTGCACTGTGCTAG	1.44
TTAGAACTGAGACTGGATCAGTGCTAG	-0.298

Series 5
Target: ABI1, truncated, D143A, DHFR fusion (Arabidopsis thaliana)
Method: DHFR PCA, deep sequencing
Matrix: yeast
Setting: methotrexate growth selection, single substitutions
Together with: (+)-ABA 710 µM
Baseline: wild-type fitted maximum
Reading: higher = stronger binding
Starting sequence: PYL1, truncated, DHFR fusion (Arabidopsis thaliana); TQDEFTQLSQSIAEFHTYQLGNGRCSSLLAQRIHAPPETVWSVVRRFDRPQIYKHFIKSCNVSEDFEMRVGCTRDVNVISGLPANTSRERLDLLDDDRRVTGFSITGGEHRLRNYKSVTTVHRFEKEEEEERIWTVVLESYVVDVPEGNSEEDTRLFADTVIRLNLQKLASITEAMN
Substitution	relative binding score [%]
T101Q	72.9
G108F	19.5
V100M	108
D75N	97.4
V62H	85.3
D144R	75.1
R88A	101
E67L	96.8
D97Q	114
V143S	82.1
T135I	18.7
R46Y	74.2
T73P	60.8
L156Y	92.6
R98I	102

For quick reference, copied from above (series 1):
Sequence	RBNS enrichment (R)
AUUUCUCUGACAAGACAAAGUAGAUAUUUUAUACCAGGGGUUGGCAAACUACUGCCCACGGGCCGAAUUUGGCCCAGUCUGUUUUUGUAUGGUGCAAACUAAAAAUGAUU	0.606
CACUACCUGGGACUCUCUGCGAUGUACAUAAUAUUUAAUGCGGUUCCGGCAGCAGCCUUCUCUGGAGGACUGAUACACAGAAGGAAACGAAGGCGCUUGCUGUGGCCGCA	0.63
UCUAGCAUAUGGACACCUGGCCUCUGCUUGAGCACUUAGGUGACAGGAACUUCCGCACCUCCUGAGGCCCUGGAUGAUUCUAAUUGUUAGAAAUUCUAAUUGUUAGAAAU	0.237
CACAGUGUUAGUGCUGGUCAGAGAGACCUCAUCCUGCUCUUUUGUGAUGAACAUAUUCAUGACGCGUGGAAGUCAGUACGAUCAAGUUGUUGACUGUGAUUAGAUCACAC	0.433
GAUACGCUCAUAUGCACUUAGGAGUGAGCUUUGUUGUACAGUCUGUCCACGGGGUCGAUGCUGUUAUUAGGUGAAAAUAGUGUGAUCUUUAAGACUUUAAAUACAGAUUU	0.956
CCUUCCAUCUGAUUUGCCUGGCCAUGCCAUCCAGUCCUUGUACAUAUAUACCUUGGAGUCCCAUACACUUAGGAAACUCCAAGGAGACACGUCCUGCUCAUCCCCGCCCC	0.301
UUGCUGCUCCAACCCAUAGCACGCUUCCUACUGCACACACAUGUUUUAACCAACUGUGCCUCCCUACAUAUGACUCAUAUGAAGAGGUGCACAGGAUGCUACAGCUGGCC	0.41
GUGUGUGUGUGUGUGUAUGUUCAUGUACACUUGGCUGUCAGGCUUUCUGUGCAUGUACUAAAAAAGGAGAAAUUAUAAUAAAUUAGCCGUCUUGCGGCCCCUAGGCCUAA	3.47
AAAGUCAAGCAUCACUUAAGACAUGCCCAGGGCUCCAGCUUGCCCUCAGCAGUCCUUCAGGACUUCUGGUUCCUUCCGCCACCCUUCUCAAGAUUCUAGAAAUCAAAGGA	0.449
UCUUAUUUUGGAUUAAAAGAAGUUUUCCAUUUGAUACCUCUCUAAAUUAAAUAAAUUAUAGAAUGUAGUUGGGUGGAUUUUGGGGUGGCCAUAUAGUAAUGGAAAGCUGC	0.59
UUGCCAACAGUCUCUAUGCUUAUUUACAUCUUCUACUGUUCAAACUAAGAGAUUUUUAAAUUCUGAAAAACUGCUUACAAUUCAUGUUUUCUAGCCACUCCACAAACCAC	0.468
CAAUAACAGAAACACUCCCAGGGACUCUGGGGAGAGGCUGAGGACAAAUACCUGCUGUCACUCCAGAGACAUUUUUUUUAGCAAUAAAAUUGAGUGUCAACUAUUUAAUC	0.384
